Results gathered from unrelated publications.
Each numbered part is a random draw from the data of one study; scales do not carry over between parts. Values joined by “and” are separate records of one study, mostly repeats; a detail may differ.
Sequence of UniProt O75582 (whole entry, looked up): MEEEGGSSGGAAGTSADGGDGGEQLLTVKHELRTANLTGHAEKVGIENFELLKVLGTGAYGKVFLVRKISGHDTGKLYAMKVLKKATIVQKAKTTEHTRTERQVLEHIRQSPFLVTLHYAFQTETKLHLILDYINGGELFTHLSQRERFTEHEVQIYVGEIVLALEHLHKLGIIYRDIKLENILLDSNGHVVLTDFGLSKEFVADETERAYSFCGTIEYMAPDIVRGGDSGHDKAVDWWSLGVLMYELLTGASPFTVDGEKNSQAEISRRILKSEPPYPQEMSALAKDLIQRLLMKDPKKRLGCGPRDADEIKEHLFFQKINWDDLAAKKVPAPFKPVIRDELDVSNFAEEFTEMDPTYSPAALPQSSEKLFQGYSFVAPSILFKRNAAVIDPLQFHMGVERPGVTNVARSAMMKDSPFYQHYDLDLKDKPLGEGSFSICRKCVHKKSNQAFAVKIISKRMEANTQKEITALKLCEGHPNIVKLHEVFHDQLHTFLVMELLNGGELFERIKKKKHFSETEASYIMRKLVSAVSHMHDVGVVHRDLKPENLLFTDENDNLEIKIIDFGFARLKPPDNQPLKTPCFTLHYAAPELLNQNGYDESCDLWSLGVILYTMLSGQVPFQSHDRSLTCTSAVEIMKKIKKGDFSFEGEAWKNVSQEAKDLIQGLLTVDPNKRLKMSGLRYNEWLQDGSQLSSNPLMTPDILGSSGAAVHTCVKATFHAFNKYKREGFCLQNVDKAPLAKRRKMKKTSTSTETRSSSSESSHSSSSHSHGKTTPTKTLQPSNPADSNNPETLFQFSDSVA
Sequence of UniProt Q16853 (whole entry, looked up): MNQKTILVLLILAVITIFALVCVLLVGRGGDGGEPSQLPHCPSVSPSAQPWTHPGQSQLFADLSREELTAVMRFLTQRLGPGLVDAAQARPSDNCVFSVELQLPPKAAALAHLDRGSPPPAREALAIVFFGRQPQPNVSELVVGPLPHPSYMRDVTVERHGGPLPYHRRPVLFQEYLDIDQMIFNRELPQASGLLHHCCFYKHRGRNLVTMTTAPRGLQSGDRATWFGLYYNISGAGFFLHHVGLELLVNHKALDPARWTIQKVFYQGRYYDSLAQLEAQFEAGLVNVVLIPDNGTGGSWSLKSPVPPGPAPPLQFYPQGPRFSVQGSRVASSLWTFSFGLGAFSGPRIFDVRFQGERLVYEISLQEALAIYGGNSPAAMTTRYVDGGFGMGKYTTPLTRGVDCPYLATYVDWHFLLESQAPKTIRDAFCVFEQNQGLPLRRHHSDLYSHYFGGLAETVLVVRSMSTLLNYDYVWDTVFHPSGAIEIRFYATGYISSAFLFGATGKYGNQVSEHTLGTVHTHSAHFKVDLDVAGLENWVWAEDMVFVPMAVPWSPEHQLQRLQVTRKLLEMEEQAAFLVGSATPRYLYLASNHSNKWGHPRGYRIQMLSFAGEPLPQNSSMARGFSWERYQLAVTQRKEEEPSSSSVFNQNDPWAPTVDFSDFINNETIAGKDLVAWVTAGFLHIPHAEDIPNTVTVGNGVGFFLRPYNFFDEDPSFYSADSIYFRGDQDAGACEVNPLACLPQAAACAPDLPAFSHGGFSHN

Block 1
Cell line: MDA-MB-468
Read-out: cell viability
Method: CellCounting-Lite
Tested at: 2.743 nM
Temperature: 37 °C
Direction: higher = more viable cells
SMILES | luminescence signal
CCn1cnc2c(NCc3nc4cc(Cl)c(Cl)cc4[nH]3)nc(N3CCN(Cc4ccncc4)CC3)nc21 | 476000 a.u. and 462000 a.u. and 488000 a.u.
CCn1cnc2c(NCc3nc4cc(Cl)c(Cl)cc4[nH]3)nc(N3CCN(C(=O)c4ccccc4)CC3)nc21 | 451000 a.u. and 436000 a.u. and 480000 a.u.
CCn1cnc2c(NCc3nc4cc(Cl)c(Cl)cc4[nH]3)nc(N3CCN(C(=O)c4cccnc4)CC3)nc21 | 277000 a.u. and 227000 a.u. and 205000 a.u.
CCn1cnc2c(NCc3nc4ccc(F)c(F)c4[nH]3)nc(N3CCn4ncnc4C3)nc21 | 497000 a.u. and 451000 a.u. and 545000 a.u.
CCn1cnc2c(NCc3nc4cc(Cl)c(Cl)cc4[nH]3)nc(N3CCN(c4ccccn4)CC3)nc21 | 458000 a.u. and 460000 a.u. and 504000 a.u.
CCn1cnc2c(NCc3nc4cc(Cl)c(Cl)cc4[nH]3)nc(N3CCN(C(=O)CNC(C)=O)CC3)nc21 | 430000 a.u. and 412000 a.u. and 462000 a.u.
CCn1cnc2c(NCc3nc4cc(Cl)c(Cl)cc4[nH]3)nc(N3CCN(C(=O)[C@H](C)NC(C)=O)CC3)nc21 | 538000 a.u. and 530000 a.u. and 504000 a.u.
CCn1cnc2c(NCc3nc4cc(Cl)c(Cl)cc4[nH]3)nc(N3CCN(C(=O)c4ccccn4)CC3)nc21 | 220000 a.u. and 262000 a.u. and 294000 a.u.
CC(=O)N1CCN(c2nc(NCc3nc4cc(Cl)c(Cl)cc4[nH]3)c3ncn(C(C)C)c3n2)CC1 | 424000 a.u. and 502000 a.u. and 510000 a.u.

Block 2
Compound: CCC1(c2cccc(-c3cn(C)nc3C)c2)C2=C(Nc3n[nH]cc31)C(F)C(C)(C)CC2=O (single isomer, unassigned)
Tested at: 1 µM
target | assay | scale | remaining binding
PAK4 (Homo sapiens, UniProt O96013) | kinase binding, KINOMEscan | baseline: DMSO control | 100%
Ribosomal protein S6 kinase alpha-5, C-terminal kinase domain (RPS6KA5, Homo sapiens, UniProt O75582) | binding, competition with immobilised ligand | – | 100%
Tyrosine-protein kinase ABL1, phosphorylated (ABL1, Homo sapiens, UniProt P00519) | binding, competition with immobilised ligand | – | 97%
Insulin receptor (INSR, Homo sapiens, UniProt P06213) | kinase binding, KINOMEscan | baseline: DMSO control | 100%
MAPK8 (Homo sapiens, UniProt P45983) | binding, competition with immobilised ligand | – | 94%
ACVR2A (Homo sapiens, UniProt P27037) | kinase binding, KINOMEscan | baseline: DMSO control | 100%
RIPK2 (Homo sapiens, UniProt O43353) | binding, competition with immobilised ligand | – | 100%
EPHA6 (Homo sapiens, UniProt Q9UF33) | binding, competition with immobilised ligand | – | 100%
STK32C (Homo sapiens, UniProt Q86UX6) | kinase binding, KINOMEscan | baseline: DMSO control | 100%
STK25 (Homo sapiens, UniProt O00506) | binding, competition with immobilised ligand | – | 90%
CSNK2A2 (Homo sapiens, UniProt P19784) | binding, competition with immobilised ligand | – | 95%
STK10 (Homo sapiens, UniProt O94804) | kinase binding, KINOMEscan | baseline: DMSO control | 99%
MAP2K3 (Homo sapiens, UniProt P46734) | binding, competition with immobilised ligand | – | 77%

Block 3
SMILES: C[C@@H]1CN(c2ccc(-c3cc(C(=O)NCCOCCOCCOCCOCCNC(=O)/C=C/c4[nH]cc(C(=O)N[C@@H](CC(N)=O)c5ccc(F)c(Cl)c5)c4-c4ccc(Cl)cc4F)ccc3F)cc2NC(=O)c2c[nH]c(=O)cc2C(F)(F)F)C[C@H](C)N1C
Read-out: thermal unfolding
Method: differential scanning fluorimetry
Tested at: 5.5 µM
Direction: higher = more unfolded
DCAF1: DDB1- and CUL4-associated factor 1 (DCAF1, Homo sapiens, UniProt Q9Y4B6)
Sequence of UniProt Q9Y4B6 (whole entry, looked up): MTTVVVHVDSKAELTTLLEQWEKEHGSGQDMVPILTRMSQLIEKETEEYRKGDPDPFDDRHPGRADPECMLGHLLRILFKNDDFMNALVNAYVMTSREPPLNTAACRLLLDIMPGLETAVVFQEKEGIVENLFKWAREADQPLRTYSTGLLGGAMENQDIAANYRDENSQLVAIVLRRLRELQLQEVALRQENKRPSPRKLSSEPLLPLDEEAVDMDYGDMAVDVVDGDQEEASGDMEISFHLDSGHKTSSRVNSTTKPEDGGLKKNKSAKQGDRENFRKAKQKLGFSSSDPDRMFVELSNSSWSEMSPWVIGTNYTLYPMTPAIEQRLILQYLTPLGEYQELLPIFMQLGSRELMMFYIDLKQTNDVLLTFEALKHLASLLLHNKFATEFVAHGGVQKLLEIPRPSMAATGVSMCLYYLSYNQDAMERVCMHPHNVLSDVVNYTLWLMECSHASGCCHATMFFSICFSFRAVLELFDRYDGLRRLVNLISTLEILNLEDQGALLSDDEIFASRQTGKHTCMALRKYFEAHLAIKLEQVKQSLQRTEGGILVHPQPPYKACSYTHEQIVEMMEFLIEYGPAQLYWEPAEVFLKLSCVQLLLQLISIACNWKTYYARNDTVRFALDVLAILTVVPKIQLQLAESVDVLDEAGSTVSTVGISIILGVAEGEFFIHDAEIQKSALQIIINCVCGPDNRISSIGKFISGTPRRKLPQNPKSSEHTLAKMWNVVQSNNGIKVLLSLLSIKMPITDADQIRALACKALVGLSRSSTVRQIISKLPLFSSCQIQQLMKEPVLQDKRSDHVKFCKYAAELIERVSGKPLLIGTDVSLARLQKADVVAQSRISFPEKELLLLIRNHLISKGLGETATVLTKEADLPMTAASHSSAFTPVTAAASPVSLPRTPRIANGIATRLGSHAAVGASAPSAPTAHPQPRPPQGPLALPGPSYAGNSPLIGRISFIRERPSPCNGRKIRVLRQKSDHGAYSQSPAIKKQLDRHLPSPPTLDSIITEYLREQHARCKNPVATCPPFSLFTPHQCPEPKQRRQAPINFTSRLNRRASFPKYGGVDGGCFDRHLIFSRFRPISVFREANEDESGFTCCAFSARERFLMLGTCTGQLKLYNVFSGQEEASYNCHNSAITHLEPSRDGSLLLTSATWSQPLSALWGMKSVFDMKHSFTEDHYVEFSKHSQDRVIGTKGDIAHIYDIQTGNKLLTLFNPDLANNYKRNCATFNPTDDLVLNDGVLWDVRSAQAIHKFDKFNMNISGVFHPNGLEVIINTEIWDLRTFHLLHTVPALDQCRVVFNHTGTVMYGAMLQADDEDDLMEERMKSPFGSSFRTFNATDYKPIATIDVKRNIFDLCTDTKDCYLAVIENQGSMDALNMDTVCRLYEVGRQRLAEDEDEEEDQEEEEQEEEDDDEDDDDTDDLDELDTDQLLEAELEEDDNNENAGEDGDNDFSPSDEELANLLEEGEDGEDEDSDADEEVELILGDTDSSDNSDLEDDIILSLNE
WDR5: WD repeat-containing protein 5 (WDR5, Homo sapiens, UniProt P61964)
target | setting | SYPRO Orange fluorescence [a.u.]
DCAF1 | 37.6 °C | 10800
DCAF1 | 62.01 °C | 50100
DCAF1 | 64.41 °C | 57800
DCAF1 | 44.4 °C | 12700
WDR5 | 80.21 °C | 41000
WDR5 | 76.41 °C | 29400
DCAF1 | 43.8 °C | 12600
DCAF1 | 53.41 °C | 18500
DCAF1 | 93.21 °C | 31400
DCAF1 | 75.21 °C | 49800
DCAF1 | 39.8 °C | 11500

Block 4
Target: E3 ubiquitin-protein ligase NEDD4, HECT domain (Homo sapiens, UniProt P46934)
Read-out: enzyme activity
Mode: inhibitor
Method: Ub-TR-FRET
Medium: HECT domain
Tested at: 11.11 µM
Direction: higher = more chain formation
Construct (P46934 938-1319, limits assumed): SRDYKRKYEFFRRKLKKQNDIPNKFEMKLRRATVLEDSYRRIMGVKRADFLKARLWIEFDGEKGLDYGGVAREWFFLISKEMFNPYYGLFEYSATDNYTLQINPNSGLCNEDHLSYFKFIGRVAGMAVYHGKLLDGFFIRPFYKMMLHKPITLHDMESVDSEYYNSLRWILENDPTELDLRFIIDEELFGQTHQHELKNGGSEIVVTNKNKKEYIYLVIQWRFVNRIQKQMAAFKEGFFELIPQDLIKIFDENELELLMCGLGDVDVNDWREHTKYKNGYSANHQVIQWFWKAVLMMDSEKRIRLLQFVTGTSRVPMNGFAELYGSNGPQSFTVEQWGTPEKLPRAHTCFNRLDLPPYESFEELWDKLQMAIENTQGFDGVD
Structure (SMILES) | ubiquitin chain formation AUC
CCOC(=O)/C=C/CNCCCCN1c2ccccc2C(=O)N(C)c2ccc(Cl)cc21.O=C(O)/C=C\C(=O)O | 16500 a.u. and 18400 a.u. and 16200 a.u.
CCOC(=O)/C=C/CNCCCN1c2ccccc2CCc2ccc(Cl)cc21 | 7160 a.u. and 6740 a.u. and 5640 a.u.
N#C/C=C/CNCCCCN1c2ccccc2CCc2ccc(Cl)cc21.O=C(O)/C=C\C(=O)O | 11500 a.u. and 9920 a.u. and 10600 a.u. and 9980 a.u. and 10900 a.u. and 10400 a.u.
CCOC(=O)/C=C/CNCCCCN1c2ccccc2COc2ccc(Cl)cc21.O=C(O)/C=C\C(=O)O | 10100 a.u. and 10300 a.u.
CNCCCN1c2ccccc2CCc2ccc(Cl)cc21 | 133000 a.u. and 131000 a.u.
C=CC(=O)NCCCN1c2ccccc2CCc2ccc(Cl)cc21 | 182000 a.u. and 184000 a.u.
CNC(=O)/C=C/CNCCCN1c2ccccc2CCc2ccc(Cl)cc21.Cl | 111000 a.u. and 108000 a.u. and 110000 a.u.
CN(C)C(=O)/C=C/CNCCCN1c2ccccc2CCc2ccc(Cl)cc21.Cl | 124000 a.u. and 127000 a.u. and 126000 a.u.
CONC(=O)/C=C/CNCCCCN1c2ccccc2CCc2ccc(Cl)cc21.O=C(O)/C=C\C(=O)O | 5790 a.u. and 6920 a.u. and 6640 a.u. and 5930 a.u. and 5350 a.u. and 6860 a.u.
CCONC(=O)/C=C/CNCCCCN1c2ccccc2CCc2ccc(Cl)cc21.O=C(O)/C=C\C(=O)O | 4840 a.u. and 4130 a.u. and 4770 a.u. and 4440 a.u. and 4740 a.u. and 4230 a.u.

Block 5
Compound: CN(C1COC1)C(C)(C)/C=C(\C#N)C(=O)N1CCC[C@H]1Cn1nc(-c2ccc(Oc3ccccc3)cc2F)c2c(N)ncnc21
Read-out: kinase activity
RPS6KA5: Ribosomal protein S6 kinase alpha-5 (RPS6KA5, Homo sapiens, UniProt O75582)
target | setting | inhibition [%]
PASK (Homo sapiens, UniProt Q96RG2) | 1 µM | -1
FGFR3 (Homo sapiens, UniProt P22607) | 1 µM | 8
IGF1R (Homo sapiens, UniProt P08069) | 0.1 µM | 4
MAP2K2 (Homo sapiens, UniProt P36507) | 1 µM | -1
IKBKB (Homo sapiens, UniProt O14920) | 1 µM | -6
FLT3 (Homo sapiens, UniProt P36888) | 1 µM | 48
ZAP70 (Homo sapiens, UniProt P43403) | 0.1 µM | 8
NEK2 (Homo sapiens, UniProt P51955) | 0.1 µM | 0
PIK3CA (Homo sapiens, UniProt P42336) | 1 µM | 8
RPS6KA5 | 1 µM | -1
TNK1 (Homo sapiens, UniProt Q13470) | 0.1 µM | -4
RPS6KA5 | 0.1 µM | 5
MAPKAPK5 (Homo sapiens, UniProt Q8IW41) | 0.1 µM | 1
MAP4K2 (Homo sapiens, UniProt Q12851) | 1 µM | -1
TBK1 (Homo sapiens, UniProt Q9UHD2) | 0.1 µM | 1

Block 6
SMILES: COc1cc(-c2nc3ccc(C(=O)NCCCN(C)C)cc3n2C2CCC2)cc(OC)c1OC
Read-out: binding
Method: competition with immobilised ligand
Tested at: 1 µM
target | remaining binding
EGFR (Homo sapiens, UniProt P00533, A750P/del747-749) | 75%
DDR1 (Homo sapiens, UniProt Q08345) | 73%
Ribosomal protein S6 kinase alpha-6, C-terminal kinase domain (RPS6KA6, Homo sapiens, UniProt Q9UK32) | 85%
MYLK (Homo sapiens, UniProt Q15746) | 100%
TAOK3 (Homo sapiens, UniProt Q9H2K8) | 100%
WNK3 (Homo sapiens, UniProt Q9BYP7) | 100%
CSNK1A1L (Homo sapiens, UniProt Q8N752) | 51%
EGFR (Homo sapiens, UniProt P00533, T790M) | 93%
Receptor-type tyrosine-protein kinase FLT3, autoinhibited (FLT3, Homo sapiens, UniProt P36888) | 93%
EGFR (Homo sapiens, UniProt P00533, G719S) | 93%
BUB1 (Homo sapiens, UniProt O43683) | 91%
PAK6 (Homo sapiens, UniProt Q9NQU5) | 100%
TYRO3 (Homo sapiens, UniProt Q06418) | 90%

Single results of other studies
MPO: Myeloperoxidase (MPO, Homo sapiens, UniProt P05164)
Sequence of UniProt P05164 (whole entry, looked up): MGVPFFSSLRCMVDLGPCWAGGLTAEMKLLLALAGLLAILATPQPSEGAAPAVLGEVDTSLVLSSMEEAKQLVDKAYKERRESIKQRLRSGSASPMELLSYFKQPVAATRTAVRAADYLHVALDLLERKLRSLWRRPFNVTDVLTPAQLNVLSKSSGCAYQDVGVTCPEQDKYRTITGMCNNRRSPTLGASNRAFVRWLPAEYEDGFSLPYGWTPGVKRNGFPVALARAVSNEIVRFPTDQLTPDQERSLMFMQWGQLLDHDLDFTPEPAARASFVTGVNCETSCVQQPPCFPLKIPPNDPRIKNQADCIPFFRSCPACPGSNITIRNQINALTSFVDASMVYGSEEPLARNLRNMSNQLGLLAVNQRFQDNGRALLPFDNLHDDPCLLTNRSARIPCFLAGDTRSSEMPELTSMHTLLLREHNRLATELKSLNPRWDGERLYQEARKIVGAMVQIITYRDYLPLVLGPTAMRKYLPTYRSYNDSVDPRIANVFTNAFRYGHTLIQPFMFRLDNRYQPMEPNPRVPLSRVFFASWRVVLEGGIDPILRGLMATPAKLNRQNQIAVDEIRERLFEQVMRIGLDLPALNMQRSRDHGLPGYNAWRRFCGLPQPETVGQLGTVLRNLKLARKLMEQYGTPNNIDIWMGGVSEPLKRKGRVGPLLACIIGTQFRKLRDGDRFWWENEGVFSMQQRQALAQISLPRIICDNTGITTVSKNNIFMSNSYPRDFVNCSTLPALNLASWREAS
Compound | tested on | assay | test system | setting | scale | endpoint | result
NCc1ccc(Cn2cc(Cc3cc(N)nc4[nH]nnc34)cn2)cc1 | MPO | enzyme activity, inhibitor, fluorescence | – | 10 µM | – | inhibition | 100%
Cc1ncsc1-c1ccc(C(CO)NC(=O)C2CC(O)CN2C(=O)C(C(C)C)n2cc(-c3ccc(COc4c(-c5c(C)c(F)cc6[nH]ncc56)c(C5CC5)cc5c(N6CC7CC6CN7)nc(OC6CCOCC6)nc45)cc3)nn2)cc1 (stereo not shown) | AsPC-1 | in-cell ELISA, item: phospho-ERK1/2 | – | 100 nM | – | ERK1/2 phosphorylation | 9.32% and 18% and 9.02%
NC/C(=C\F)COc1ccc(Cl)c(-c2cc(=O)[nH]c(=S)n2CC(N)=O)c1 | MPO | enzyme activity, inhibitor, fluorescence | – | 15 µM | – | inhibition | 98%
Cc1ncsc1-c1ccc(C(CO)NC(=O)C2CC(O)CN2C(=O)C(NC(=O)c2ccc(COc3c(-c4c(C)c(F)cc5[nH]ncc45)c(C4CC4)cc4c(N5CC6CC5CN6)nc(OC5CCOCC5)nc34)cc2)C(C)C)cc1 (stereo not shown) | AsPC-1 | In-Cell ELISA, item: phospho-ERK1/2 | – | – | – | IC50 | 108 nM and 72.7 nM and 64.4 nM
C=C(CN)COc1cccc(Cn2c(=S)[nH]c(=O)c3[nH]cnc32)c1 | AOC3 (Homo sapiens, UniProt Q16853) | dilution jump | – | concentration not given | baseline: DMSO control | remaining activity | 79.1% and 79.4% and 80.7%
Cc1ncsc1-c1ccc(C2(NC(=O)C3CC(O)CN3C(=O)C(NC(=O)c3ccc(COc4c(-c5c(C)c(F)cc6[nH]ncc56)c(C5CC5)cc5c(N6CC7CC6CN7)nc(OC6CCOCC6)nc45)cc3)C(C)C)CC2)cc1 (stereo not shown) | AsPC-1 | in-cell ELISA | – | 1 nM, individual replicates | – | phospho-ERK1/2 level | 104% and 101% and 88.8% and 97.4% and 99.7% and 89.9%
NC/C(=C\F)COc1cccc(Cn2c(=S)[nH]c(=O)c3[nH]cnc32)c1 | – | – | human liver microsomes | 60 min | – | remaining compound | 88.2% and 76.7% and 72.8% and 76.2% and 77.2% and 58%
Cc1ncsc1-c1ccc(C2(NC(=O)C3CC(O)CN3C(=O)C(NC(=O)c3ccc(COc4c(-c5c(C)c(F)cc6[nH]ncc56)c(C5CC5)cc5c(N6CC7CC6CN7)nc(OC6CCOCC6)nc45)cc3)C(C)(C)C)CC2)cc1 (stereo not shown) | AsPC-1 | in-cell ELISA | – | 3 µM, individual replicates | – | phospho-ERK1/2 level | 19.6% and 21.3% and 18.6% and 17.5% and 11.3% and 19%

For quick reference, copied from above (block 5):
target | setting | inhibition [%]
ZAP70 (Homo sapiens, UniProt P43403) | 0.1 µM | 8
NEK2 (Homo sapiens, UniProt P51955) | 0.1 µM | 0
PIK3CA (Homo sapiens, UniProt P42336) | 1 µM | 8
RPS6KA5 | 1 µM | -1
TNK1 (Homo sapiens, UniProt Q13470) | 0.1 µM | -4
RPS6KA5 | 0.1 µM | 5
